Published values gathered from unrelated publications.
Numbered parts are unrelated; each lists some results of a single study. Changes are numbered by the printed parent chain.

Study 1 — target: CCNE2, cyclin fold, Cln2 fusion (human); technique: yeast growth competition, sequencing; matrix: yeast; notes: strong parent motif; baseline: not given; reading: higher = stronger binding
Starting sequence: RBL2 docking peptide (human); STTRRRLFVENDS
`N11C`: “normalised enrichment score” 4.35.
`F8R` — result for “normalised enrichment score”: 0.00145.
For `F8N`, “normalised enrichment score” read 0.25.
Under “normalised enrichment score”, `S13D` is recorded as 4.99.
Under “normalised enrichment score”, `D12S` is recorded as 3.94.
For `S13T`, “normalised enrichment score” read 4.15.
`T2M`: “normalised enrichment score” 4.1.
`R6S`: “normalised enrichment score” 0.555.
`T3H` — result for “normalised enrichment score”: 4.76.
`V9C` — result for “normalised enrichment score”: 4.67.
`D12Y` — result for “normalised enrichment score”: 3.51.
Under “normalised enrichment score”, `T2A` is recorded as 3.79.
`S13L`: “normalised enrichment score” 4.35.
`R4I`: “normalised enrichment score” 2.76.
Under “normalised enrichment score”, `R6I` is recorded as 1.8.
For `F8A`, “normalised enrichment score” read -0.499.
Under “normalised enrichment score”, `E10K` is recorded as 1.82.
Under “normalised enrichment score”, `L7Y` is recorded as -0.409.
`L7G`: “normalised enrichment score” -0.629.
`E10F` — result for “normalised enrichment score”: 1.89.
For `F8V`, “normalised enrichment score” read 0.463.
For `S1I`, “normalised enrichment score” read 3.85.
`E10W` — result for “normalised enrichment score”: 1.15.

Study 2 — technique: RNA Bind-n-Seq; form: RNA; matrix: in vitro; tested at: not given; baseline: input RNA pool; reading: higher = stronger binding
Target: RING finger protein unkempt homolog, zinc fingers 1-6, GST-SBP tag (UNK, Homo sapiens, UniProt Q9C0B0, residues 30-357)
Notes: RNA with constant flanks, human and mouse sites, ends assumed
Constant ends, left off below: GGGAGUUCUACAGUCCGACGAUC … CAACAGAGGAUUGAGCAUCA
Target sequence (chain): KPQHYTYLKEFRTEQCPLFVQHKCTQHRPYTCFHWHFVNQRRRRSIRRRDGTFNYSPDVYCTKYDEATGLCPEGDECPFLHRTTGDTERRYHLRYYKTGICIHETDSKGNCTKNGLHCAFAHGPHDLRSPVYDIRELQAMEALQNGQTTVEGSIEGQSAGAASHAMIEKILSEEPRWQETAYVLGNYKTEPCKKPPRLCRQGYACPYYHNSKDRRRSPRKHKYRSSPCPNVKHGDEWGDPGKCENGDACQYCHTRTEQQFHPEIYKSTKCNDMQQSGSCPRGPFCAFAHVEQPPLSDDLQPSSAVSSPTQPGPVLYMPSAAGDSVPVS
`GAUUUUUAUUUUAUGUAUAUGAGUACACUGUAGCUGUCUUCAGACACACCAGAAGAGGGCAUAGAAUCCCAUUACAGAUUAUUGAGAGCCACCAUGUGAUUACUGGGGAUUGAACUCAUG` gave a bound/input enrichment of 0.4 ratio.
`AGACACAAGCUCUUGGUGCUGUCUGGGAAAGGCGGCGUUGGGAAAAGCACGUUCAGUGCACACCUCGCCCACGGCCUAGCGGAGGAUGGAGAUACACAGGUUGCUCUUCUGGACAUCGAU` gave a bound/input enrichment of 0.0827 ratio.
`GAGGAAACAGACUAUACUCCCGUUUGGUGCAUGAGACAGGCAGGCCGCUACUUACCAGAGUUUAGGGAAACCAGGGCUGCCCAGGACUUCUUCAGCACCUGCCGAUCUCCCGAGGCUUGC` gave a bound/input enrichment of 0.105 ratio.
For `UGGUUACACUAGAAGUCAAGCCCAUUAGGGAUUUUCAUUUUUUUUCAUUUGGUUGUUGAGAAGUUUCAAAAAUCAGUUUUCAAGCUGUGGUCUUUCAAACACAUCUGCACAUAAGUCACA`, the bound/input enrichment was 3.18 ratio.
For `ACCACCCACACCACCCUGGAGCACUCUGAUUGUGCCUUCAUGGUAGACAAUGAGGCCAUCUAUGACAUCUGUCGUAGAAACCUCGAUAUUGAGCGUCCAACCUAUACUAACCUGAAUAGG`, the bound/input enrichment was 0.136 ratio.
`AGAGAAAUGAGAAAGAAUCUUACACAAGAAGAGAUGCAAAGAAUGUCUACUAGAGUCCUUUUGGCGACUCUUUCCAUUCCUAUUACUCCUGAGCGAACUGAUAUUGCUCGACUUUUGGAU` has a bound/input enrichment of 0.118 ratio.
`AGCCUUAUCCCUGGUCAUUUGGAUUUUCAGUUUGCUUUUUUCUUUUUUUCCCCUCCAAACUCCUUUUCCUUGGCCAAGCCUUCAUGCUUCCCCCUUUCCAUAUUAUAAUCUCAUUUGAUU` gave a bound/input enrichment of 1.58 ratio.

Study 3 — technique: DHFR PCA, dose-response; matrix: yeast; notes: Hill fit, mean, not affinity; added: (+)-ABA, dose series; reading: lower = more sensitive
Target: ABI1, truncated, D143A, DHFR fusion (Arabidopsis thaliana, UniProt P49597)
Starting sequence: PYL1, truncated, DHFR fusion (Arabidopsis thaliana, UniProt Q8VZS8); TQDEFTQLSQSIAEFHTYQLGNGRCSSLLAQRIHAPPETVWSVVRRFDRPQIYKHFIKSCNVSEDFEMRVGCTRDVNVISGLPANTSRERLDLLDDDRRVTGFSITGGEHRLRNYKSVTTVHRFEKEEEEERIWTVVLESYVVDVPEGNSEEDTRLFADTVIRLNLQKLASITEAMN
With `L156D` the ABA EC50 was 7.64 µM.
The ABA EC50 of `K58M` is reported as 14.4 µM.
`V118F` has an ABA EC50 of 58.9 µM.
The ABA EC50 of `R113S` is reported as 2.67 µM.
With `N22V` the ABA EC50 was 2.02 µM.
`P36A` gave an ABA EC50 of 3.74 µM.
`A84G` gave an ABA EC50 of 8.1 µM.
`L20H` gave an ABA EC50 of 2.58 µM.
`D48P` gave an ABA EC50 of 255 µM.
For `N61R`, the ABA EC50 was 2.64 µM.
The ABA EC50 of `G102N` is reported as 981 µM.
`C72L` gave an ABA EC50 of 17.4 µM.
For `D95H`, the ABA EC50 was 62.9 µM.
`Q7K` has an ABA EC50 of 3.18 µM.
The ABA EC50 of `V78P` is reported as 80.9 µM.
For `Q167D`, the ABA EC50 was 11.4 µM.
The ABA EC50 of `F56L` is reported as 2.91 µM.
`A13S` has an ABA EC50 of 3.34 µM.
`A13F` gave an ABA EC50 of 7.93 µM.

Study 4 — technique: universal PBM; form: double-stranded DNA, one strand shown; matrix: in vitro; tested at: not given; reading: higher = stronger binding
Target: Sal-like protein 4, full length isoform B (SALL4, Homo sapiens, UniProt Q9UJQ4-2, residues 1-616)
Notes: 8-mer, flanks averaged, mean of replicates
With `ACAGGCCA` the E-score was -0.194.
`ACCTTACG` gave an E-score of -0.0326.
The E-score of `AGGGGTCG` is reported as -0.204.
With `ATATCCTG` the E-score was 0.104.
`CCGGCAAC` has an E-score of -0.316.
`AGTAGATC` gave an E-score of 0.0568.
For `CTGGCGTA`, the E-score was -0.16.
For `CTTGCAGA`, the E-score was -0.134.
The E-score of `GAATTGTA` is reported as 0.115.
With `ATTAAGTC` the E-score was 0.308.
For `CCTCCTGC`, the E-score was -0.223.
`AATGCGCC` has an E-score of -0.149.
`CCACCGAA` gave an E-score of -0.143.
For `ATAAGTTA`, the E-score was 0.349.
The E-score of `AGCTAGTC` is reported as -0.0327.
The E-score of `CTACTACC` is reported as 0.0844.
For `AAGCGGCC`, the E-score was -0.218.
The E-score of `ATCTCTTA` is reported as 0.0852.
`GTCTAAAC` has an E-score of 0.0215.
With `TCAACCCA` the E-score was -0.00911.
For `AACCCAAG`, the E-score was -0.00034.
The E-score of `CATGATAG` is reported as 0.212.
For `CTTCCCAA`, the E-score was -0.123.
With `AAAAATCT` the E-score was 0.271.
`CCGTCCAA` has an E-score of -0.0296.

Study 5 — target: BATF, bZIP domain (human); technique: DHFR protein complementation; matrix: yeast; baseline: wild-type JUN-FOS pair; reading: higher = stronger binding
Notes: single substitutions, most at no-binding floor
Starting sequence: JUN, bZIP domain (human); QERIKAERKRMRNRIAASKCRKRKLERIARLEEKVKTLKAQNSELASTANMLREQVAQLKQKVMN; partner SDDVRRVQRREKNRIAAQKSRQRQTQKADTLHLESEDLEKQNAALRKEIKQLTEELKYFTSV
For `A40L`, the binding fitness was -0.0976 natural log.
With `I28C` the binding fitness was -0.124 natural log.
For `Q58R`, the binding fitness was -0.059 natural log.
The binding fitness of `A49H` is reported as -0.434 natural log.
The binding fitness of `E44D` is reported as -0.154 natural log.
The binding fitness of `T37W` is reported as -0.0127 natural log.
`T48N` has a binding fitness of -0.209 natural log.
With `L59C` the binding fitness was -0.0307 natural log.
With `E32R` the binding fitness was -0.0584 natural log.
With `A57C` the binding fitness was -0.309 natural log.
With `V35A` the binding fitness was -0.358 natural log.
For `K34R`, the binding fitness was 0.114 natural log.
With `T48Y` the binding fitness was -0.0577 natural log.
With `L59S` the binding fitness was -0.221 natural log.
`E33Q` has a binding fitness of -0.188 natural log.
For `L31F`, the binding fitness was -0.183 natural log.
`L38S` gave a binding fitness of -0.705 natural log.

Study 6 — technique: protein-binding microarray; form: double-stranded DNA, one strand shown; matrix: in vitro; tested at: 250 nM; notes: 60-bp whole probe; added: salmon DNA 0.4 mg/ml; baseline: random background probes; reading: higher = stronger binding; constant ends, left off below: GCCTAGCAC … GTCTTGATTCGCTTGACGCTGCTG
Target: Interferon regulatory factor 5, full length, phosphomimetic (IRF5, Homo sapiens, UniProt Q13568-2, residues 1-514, K96S/S451D/S453D/S456D/S462D)
`GACGATTTCGGGTTTCAAGACGTGCTA` has a log fluorescence of 3.79 z-score.
The log fluorescence of `TGATGACTGGAGTCTGGACTAGTGCTA` is reported as -0.564 z-score.
For `TTAGCTATCGGACTGGGTTAGTGCTAG`, the log fluorescence was 1.86 z-score.
With `TGAGATTTCAGTTCCGATTAGTGCTAG` the log fluorescence was 2.3 z-score.
`TTAGGACTGCTTCTCGTTTAGTGCTAG` gave a log fluorescence of -0.0899 z-score.
For `GACGGACTGCTTTCCCTGACGTGCTAG`, the log fluorescence was 0.0411 z-score.
`GACGATATCGGGTATCGATACGTGCTA` has a log fluorescence of 5.75 z-score.
With `TTAGGTCTCCGTATCGGTTAGTGCTAG` the log fluorescence was 3.74 z-score.
`CTTTTTAGAAATTTCTTTCTGTGCTAG` gave a log fluorescence of 2.37 z-score.
The log fluorescence of `TTAGTACTGGGGTATCGATTAGTGCTA` is reported as 2.13 z-score.
`CACGGACTGGGTATCGGGACGTGCTAG` has a log fluorescence of 0.449 z-score.
`GACGGTCTCCGTCTCCTGACGTGCTAG` has a log fluorescence of -0.35 z-score.
With `GACGGCCTGCTTCTCCTGACGTGCTAG` the log fluorescence was -0.583 z-score.
`ATGACTCCCTCTCTGGCCAAGTGCTAG` has a log fluorescence of -0.433 z-score.
With `TTAGAATTGAGTTTCGATTAGTGCTAG` the log fluorescence was 9.62 z-score.
`TCACTCTTGCTTTTTAGACTGTGCTAG` has a log fluorescence of 0.608 z-score.
`TCACCTCTAACTTCCCAACTGTGCTAG` has a log fluorescence of 0.00782 z-score.
With `GACGAGCTGGGGACTGGAGACGTGCTA` the log fluorescence was -0.551 z-score.
For `TGAGTGAAAGGCCCATACATGTGCTAG`, the log fluorescence was 0.178 z-score.
The log fluorescence of `TCAGGACTGGGTTTCGGTTAGTGCTAG` is reported as 8.27 z-score.
The log fluorescence of `TTAGGTTTCGGACTGGTTTAGTGCTAG` is reported as 5.49 z-score.
With `TTAGAACTGGGGTATCGATTAGTGCTA` the log fluorescence was 2.42 z-score.
With `GACGGACTGGACACTGTGGACGTGCTA` the log fluorescence was -0.526 z-score.
`CCAACTCGCCTTTTTTGTTGGTGCTAG` gave a log fluorescence of 0.0151 z-score.
With `GACGGACTGCACTTTCGGGACGTGCTA` the log fluorescence was 5.59 z-score.

A few entries again (study 5):
For `A40L`, the binding fitness was -0.0976 natural log.
With `I28C` the binding fitness was -0.124 natural log.
For `Q58R`, the binding fitness was -0.059 natural log.
The binding fitness of `A49H` is reported as -0.434 natural log.
The binding fitness of `E44D` is reported as -0.154 natural log.
The binding fitness of `T37W` is reported as -0.0127 natural log.
`T48N` has a binding fitness of -0.209 natural log.
With `L59C` the binding fitness was -0.0307 natural log.
With `E32R` the binding fitness was -0.0584 natural log.
With `A57C` the binding fitness was -0.309 natural log.
With `V35A` the binding fitness was -0.358 natural log.
For `K34R`, the binding fitness was 0.114 natural log.
With `T48Y` the binding fitness was -0.0577 natural log.
With `L59S` the binding fitness was -0.221 natural log.
`E33Q` has a binding fitness of -0.188 natural log.
For `L31F`, the binding fitness was -0.183 natural log.
`L38S` gave a binding fitness of -0.705 natural log.
